# Measurements of several laboratories.
# Each line is one published result; not all experiments were run side by side. Positions count from the first letter of the parent shown. ± marks the error that the study gave.
# mutY full length assumed E37S: mutY full length assumed E37S (Escherichia coli, UniProt P17802)
# T1: TIA1 RRM2-3, residues 93-274 (Homo sapiens); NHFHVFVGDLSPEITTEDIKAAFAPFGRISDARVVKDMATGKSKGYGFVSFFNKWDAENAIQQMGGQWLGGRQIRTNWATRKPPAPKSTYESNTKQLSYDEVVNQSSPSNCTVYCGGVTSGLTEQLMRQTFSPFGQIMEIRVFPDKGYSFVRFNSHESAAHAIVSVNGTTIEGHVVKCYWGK
# P1: ITGA2 cytoplasmic domain peptide (Homo sapiens); WKLGFFKRKYEKM
# P2: PRDX1 residues 1-199; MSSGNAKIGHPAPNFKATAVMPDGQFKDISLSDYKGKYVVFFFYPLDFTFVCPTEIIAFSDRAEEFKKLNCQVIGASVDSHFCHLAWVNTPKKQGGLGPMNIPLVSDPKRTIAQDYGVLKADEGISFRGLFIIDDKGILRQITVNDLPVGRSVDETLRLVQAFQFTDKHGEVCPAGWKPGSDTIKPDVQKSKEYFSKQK
# P3: Tln1 F3 domain, 309-405 (Mus musculus); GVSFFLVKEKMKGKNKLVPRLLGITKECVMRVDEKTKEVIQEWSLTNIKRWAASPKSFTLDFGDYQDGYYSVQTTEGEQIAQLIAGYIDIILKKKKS; partner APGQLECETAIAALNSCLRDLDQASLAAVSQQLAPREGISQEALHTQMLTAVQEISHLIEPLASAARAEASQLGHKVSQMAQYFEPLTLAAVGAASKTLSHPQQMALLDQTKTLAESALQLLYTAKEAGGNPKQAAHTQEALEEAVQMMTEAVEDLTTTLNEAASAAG
# B1: Msrb2 (Mus musculus, UniProt Q78J03); chain ADWQKKLTPEQFYVTREKGTEAPFSGMYLNNKETGMYHCVCCDSPLFSSEKKYCSGTGWPSFSEAYGSKGSDESHTGILRRLDTSLGCPRMEVVCKQCEAHLGHVFPDGPKPTGQRFCINSVALKFKPSKP
# P4: PRDX1 (Homo sapiens); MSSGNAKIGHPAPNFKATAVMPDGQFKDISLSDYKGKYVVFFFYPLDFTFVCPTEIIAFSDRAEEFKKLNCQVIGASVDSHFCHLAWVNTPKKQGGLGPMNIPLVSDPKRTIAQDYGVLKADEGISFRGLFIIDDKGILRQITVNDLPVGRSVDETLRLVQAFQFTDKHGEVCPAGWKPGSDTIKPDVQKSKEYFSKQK
# B2: IL18 mature form (Mus musculus, UniProt P70380); chain FGRLHCTTAVIRNINDQVLFVDKRQPVFEDMTDIDQSASEPQTRLIIYMYKDSEVRGLAVTLSVKDSKMSTLSCKNKIISFEEMDPPENIDDIQSDLIFFQKRVPGHNKMEFESSLYEGHFLACQKEDDAFKLILKKKDENGDKSVMFTLTNLHQS
# Sequence of UniProt Q96T21 (whole entry, looked up): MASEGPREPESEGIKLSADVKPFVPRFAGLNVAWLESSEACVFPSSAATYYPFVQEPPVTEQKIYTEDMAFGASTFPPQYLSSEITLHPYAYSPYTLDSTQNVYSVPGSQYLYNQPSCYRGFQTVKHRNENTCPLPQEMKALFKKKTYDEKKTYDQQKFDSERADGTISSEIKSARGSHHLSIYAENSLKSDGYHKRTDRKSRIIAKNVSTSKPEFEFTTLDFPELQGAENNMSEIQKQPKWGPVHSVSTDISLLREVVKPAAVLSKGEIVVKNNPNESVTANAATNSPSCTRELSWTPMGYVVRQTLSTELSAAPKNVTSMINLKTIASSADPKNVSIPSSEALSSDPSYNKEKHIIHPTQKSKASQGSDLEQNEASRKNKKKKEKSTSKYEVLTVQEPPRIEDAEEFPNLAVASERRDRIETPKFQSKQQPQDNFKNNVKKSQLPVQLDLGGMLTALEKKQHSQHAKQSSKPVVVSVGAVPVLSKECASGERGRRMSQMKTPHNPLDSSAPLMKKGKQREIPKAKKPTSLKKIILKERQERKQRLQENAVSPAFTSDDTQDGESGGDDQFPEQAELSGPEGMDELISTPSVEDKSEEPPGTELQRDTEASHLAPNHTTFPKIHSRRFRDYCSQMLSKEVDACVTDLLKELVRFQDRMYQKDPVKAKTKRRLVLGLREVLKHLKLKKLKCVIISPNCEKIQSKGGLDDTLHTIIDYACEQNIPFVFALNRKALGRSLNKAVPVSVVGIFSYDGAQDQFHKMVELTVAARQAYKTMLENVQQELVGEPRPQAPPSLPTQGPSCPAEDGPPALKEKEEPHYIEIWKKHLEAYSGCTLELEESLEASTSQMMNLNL
# Sequence of UniProt P27695 (whole entry, unmodified, looked up): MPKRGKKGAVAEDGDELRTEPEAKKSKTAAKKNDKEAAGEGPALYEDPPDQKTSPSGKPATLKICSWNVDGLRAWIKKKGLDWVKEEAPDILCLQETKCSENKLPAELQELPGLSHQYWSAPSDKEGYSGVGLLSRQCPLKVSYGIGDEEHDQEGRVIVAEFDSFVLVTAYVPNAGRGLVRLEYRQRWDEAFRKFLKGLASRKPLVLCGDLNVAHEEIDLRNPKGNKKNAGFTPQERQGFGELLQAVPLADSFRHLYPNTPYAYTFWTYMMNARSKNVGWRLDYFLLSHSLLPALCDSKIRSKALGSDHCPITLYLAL
# Sequence of UniProt P19525 (whole entry, looked up): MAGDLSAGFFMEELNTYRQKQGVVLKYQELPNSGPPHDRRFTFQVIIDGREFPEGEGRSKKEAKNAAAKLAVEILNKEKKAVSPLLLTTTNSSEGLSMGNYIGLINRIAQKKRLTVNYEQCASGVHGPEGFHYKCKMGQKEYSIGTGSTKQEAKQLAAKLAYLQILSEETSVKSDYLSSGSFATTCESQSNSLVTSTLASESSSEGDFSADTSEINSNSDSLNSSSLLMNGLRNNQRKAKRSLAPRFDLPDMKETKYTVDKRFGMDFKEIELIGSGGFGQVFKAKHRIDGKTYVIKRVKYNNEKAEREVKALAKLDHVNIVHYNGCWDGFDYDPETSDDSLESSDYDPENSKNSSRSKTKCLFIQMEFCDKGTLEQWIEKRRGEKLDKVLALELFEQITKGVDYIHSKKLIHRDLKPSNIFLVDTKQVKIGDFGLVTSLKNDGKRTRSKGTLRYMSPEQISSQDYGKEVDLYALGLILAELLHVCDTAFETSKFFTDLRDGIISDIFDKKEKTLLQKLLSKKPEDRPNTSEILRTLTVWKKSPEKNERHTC
# Sequence of UniProt Q01196 (whole entry, looked up): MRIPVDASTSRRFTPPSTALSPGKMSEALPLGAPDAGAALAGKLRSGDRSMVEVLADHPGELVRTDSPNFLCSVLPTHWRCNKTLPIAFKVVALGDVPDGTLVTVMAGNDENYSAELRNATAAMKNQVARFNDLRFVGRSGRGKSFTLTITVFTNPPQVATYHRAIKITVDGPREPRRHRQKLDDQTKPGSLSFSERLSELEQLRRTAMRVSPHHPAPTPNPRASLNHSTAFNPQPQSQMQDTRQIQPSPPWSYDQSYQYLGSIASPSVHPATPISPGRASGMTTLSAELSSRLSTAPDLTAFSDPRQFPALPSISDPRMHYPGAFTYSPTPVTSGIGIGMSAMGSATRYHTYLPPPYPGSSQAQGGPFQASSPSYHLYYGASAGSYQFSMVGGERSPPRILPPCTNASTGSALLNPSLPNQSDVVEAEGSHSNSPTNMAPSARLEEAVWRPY
# Sequence of UniProt P04395 (whole entry, looked up): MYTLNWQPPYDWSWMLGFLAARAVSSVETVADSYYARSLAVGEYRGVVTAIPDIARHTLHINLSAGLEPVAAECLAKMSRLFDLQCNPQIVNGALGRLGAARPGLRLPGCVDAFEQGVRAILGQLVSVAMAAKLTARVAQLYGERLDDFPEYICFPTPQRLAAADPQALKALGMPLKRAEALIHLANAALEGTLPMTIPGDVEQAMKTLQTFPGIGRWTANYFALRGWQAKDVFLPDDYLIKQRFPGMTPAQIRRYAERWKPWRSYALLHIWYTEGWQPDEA
# Sequence of UniProt P0DX76 (whole entry, looked up): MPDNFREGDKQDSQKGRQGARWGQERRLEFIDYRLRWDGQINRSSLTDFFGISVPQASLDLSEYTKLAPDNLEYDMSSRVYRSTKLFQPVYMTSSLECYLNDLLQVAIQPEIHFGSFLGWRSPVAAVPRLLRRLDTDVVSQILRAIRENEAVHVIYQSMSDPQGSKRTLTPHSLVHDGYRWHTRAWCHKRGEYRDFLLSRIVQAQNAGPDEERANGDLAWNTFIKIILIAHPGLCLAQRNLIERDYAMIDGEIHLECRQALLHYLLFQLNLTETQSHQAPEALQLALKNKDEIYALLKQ
# Sequence of UniProt Q9Z0M9 (whole entry, looked up): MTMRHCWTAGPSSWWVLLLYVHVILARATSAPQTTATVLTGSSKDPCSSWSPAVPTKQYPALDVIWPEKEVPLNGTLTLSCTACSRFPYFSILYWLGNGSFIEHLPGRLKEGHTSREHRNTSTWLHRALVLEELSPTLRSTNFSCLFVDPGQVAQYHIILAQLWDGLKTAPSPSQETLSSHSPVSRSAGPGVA
Substance,tested on,test,system,conditions,how to read,measurement,value
"ACAGGUGGGCGCGUGAUUAUGUUUGUACGAAGACUGU (ssRNA; 4'-thio at all pyrimidines, stem-bulge-loop)",F2 alpha-thrombin (Homo sapiens),filter binding,modified nucleic acid,with: Mg2+ 1 mM,,Kd,4.7 nM
P1 K7A R8A,RASA1 GAP domain 714-1047 (Homo sapiens),fluorescence polarisation,,,"baseline: unchanged protein, higher = more binding",relative binding,13
P2 D47A,DOK3 fragment,pull-down,,"read off a plot, with: SAB 50 µmol/L",higher = more binding,IP/Input,1 IP/Input
CTGACCAAAACAAAAAATCTCCAAAAAACTCGAAAAAAGTGGTCAGTT (dsDNA),"protein holo R370Q/R371Q (Bacillus clausii, UniProt A0A268NVG2)",fluorescence titration,"double-stranded DNA, one strand shown","Mg2+ 5 mM, apparent, Hill fit, with: PLP",,Kd,46.5 ± 3.3 nM
GCAGCCCAUGAUGGCUGAAUCCGAAAUCCUCGAUGGGUCCAGGUUGAUGUCUUUGCAGC (structured RNA; internal loop hairpin),"SECISBP2 515-854 (Homo sapiens, UniProt Q96T21)",EMSA,folded RNA,,,Kd,800 nM
P3 M11A,Tln1 residues 1655-1822 (Mus musculus),NMR titration,,,,Kd,14000 nM
GGGGGGG (ssDNA),"capW 1-299 (Escherichia coli, UniProt P0DX76)",fluorescence polarization,single-stranded DNA,range over sequences,,Kd,9540 nM
AAAA (ssRNA),"rnr full length assumed R572K (Escherichia coli, UniProt P21499)",filter binding,RNA,EDTA present,,Kd,5800 ± 1500 nM
GACATGATTGCCCGATAGCATCCTACCTTCTCTCCATGCGTCAATTGTC (dsDNA; 49-mer duplex),"alkA 1-282 (Escherichia coli, UniProt P04395)",competition,"double-stranded DNA, one strand shown",,,Ki,12 ± 2 nM
TTTTTTTTTTTTTTTTTTTT (ssDNA),"TIAL1 96-175 (Homo sapiens, UniProt Q01085)",SPR,single-stranded DNA,,,Kd,15200 ± 350 nM
"DNA 1 CGATCATGGAGGCTAGCGCTCCCGTTACAG / DNA 2 CTGTAACGGGAGCGATAGCCTCCATGATCG (dsDNA; 30 bp, central 8-oxoguanine:A)",mutY full length assumed E37S,EMSA,double-stranded DNA,,,Kd,< 0.003 nM
CTGACCTCATCATCTCCCTACACACTGACACTTACAATGTGGTCAGTT (dsDNA),"protein holo (Bacillus clausii, UniProt A0A268NVG2)",fluorescence titration,"double-stranded DNA, one strand shown","Mg2+ 5 mM, apparent, Hill fit, with: PLP",,Kd,22.8 ± 2.7 nM
CGGGGCGGGCCGGGGGCGGGGT (G-quadruplex DNA; parallel in K+),"APEX1 34-318 D210A/del1-33 (Homo sapiens, UniProt P27695)",fluorescence anisotropy,folded DNA,"K+ 50 mM, with: Mg2+ 10 mM",,Kd,230 ± 40 nM
GGGACACAAUGGACGACCCACCACGGCGAGGUAUCCCAUUGCCCCUAACGGCCGACAUGAGAG (structured RNA),"RUNX1 1-188 (Homo sapiens, UniProt Q01196)",SPR,folded RNA,,,Kd,3.6 ± 0.1 nM
UGGAGCCUUCCACCCCGGCACUCAUGACGGUCUGCCUGAAAACCAGCCCGCUGGUGGGGCAGUCCCGAGGACCUGGCGUGCAUCCCCGCCGGAGGAAGGUCCA (structured RNA),"Sbp2 full length assumed S95I/V96I/R97L/V98K/Y99E (Drosophila melanogaster, UniProt Q9VSH1)",EMSA,folded RNA,,,Kd,40 ± 6 nM
P1 F5A F6A,RASA1 GAP domain 714-1047 (Homo sapiens),fluorescence polarisation,,,"baseline: unchanged protein, higher = more binding",relative binding,29
"DNA 1 CGATCATGGAGGCTAGCGCTCCCGTTACAG / DNA 2 CTGTAACGGGAGCGATAGCCTCCATGATCG (dsDNA; 30 bp, central 1-methyl-8-oxoguanine:A)",mutY full length assumed E37S,EMSA,double-stranded DNA,,,Kd,0.3 ± 0.2 nM
RNA 1 GGAGGAUGUUAAUUGGCGUGUCUUGUCUGCAACGGUAUUC / RNA 2 GAAUACCGUUGCAGACAAGACACGCCAAUUAACAUCCUCC (dsRNA),"EIF2AK2 1-551 (Homo sapiens, UniProt P19525)",sedimentation velocity AUC,double-stranded RNA,Kd1 first PKR,,Kd,166 nM
"DNA 1 CGATCATGGAGGCTAGCGCTCCCGTTACAG / DNA 2 CTGTAACGGGAGCGATAGCCTCCATGATCG (dsDNA; 30 bp, central 7-methyl-8-oxoguanine:A)",mutY full length assumed E37S,EMSA,double-stranded DNA,,,Kd,0.02 ± 0.01 nM
GUUAUAUUCUCCUUUC (ssRNA),"T1, TIA1 RRM2-3, residues 93-274 (Homo sapiens)",ITC,RNA,reverse titration,,Kd,216 ± 47.6 nM
"DNA 1 CGATCATGGAGGCTAGCGCTCCCGTTACAG / DNA 2 CTGTAACGGGAGCGATAGCCTCCATGATCG (dsDNA; 30 bp, central 8-thioguanine:A)",mutY full length assumed E37S,EMSA,double-stranded DNA,,,Kd,< 0.003 nM
B1 (Msrb2),CN(C)c1ccc(/N=N/c2ccc(S(=O)(=O)N[C@@H](CC[S@@+](C)[O-])C(=O)O)cc2)cc1,steady-state kinetics,,"pH 7.5, NaCl 50 mM, with: DTT 20 mM",,Vmax,0.279 µmol/min/mg
P4 F48A,DOK3,co-IP,HEK-293T,"without SAB, read off a plot",higher = more binding,IP/Input,0.52 IP/Input
CTGACCTCATCATTTTCTTAAAAACTGACACTTACAATGTGGTCAGTT (dsDNA),"protein holo K126Q/K129Q (Bacillus clausii, UniProt A0A268NVG2)",fluorescence titration,"double-stranded DNA, one strand shown","Mg2+ 5 mM, apparent, Hill fit, with: PLP",,Kd,36.6 ± 1.7 nM
GCAGCCCAUGAUGGCUGAAUCCGAAAUCCUCGAUGGGUCCAGCUUGAUGUCUUUGCAGC (structured RNA),"SECISBP2 (Homo sapiens, UniProt Q96T21)",EMSA,folded RNA,,,Kd,340 ± 15 nM
B2 (IL18 mature form),"Il18bp (Mus musculus, UniProt Q9Z0M9)",SPR,,read off a plot,,Kd,0.0011 nM
UGGAGCCUUCCACCCCGGCACUCAUGACGGUCUGCCGAAAUCCUCGAUGGCAGUCCCGAGGACCUGGCGUGCAUCCCCGCCGGAGGAAGGUCCA (structured RNA),"SECISBP2 (Homo sapiens, UniProt Q96T21)",EMSA,folded RNA,,,Kd,530 ± 120 nM
GGGGGGUUUUUUUUUUUUUUUUUGGGGG (ssRNA),"TIAL1 8-175 (Homo sapiens, UniProt Q01085)",SPR,RNA,,,Kd,1200 ± 20 nM
